{"data": "Assay results pooled from the literature", "note": "A part holds a random share of what one study measured. Values joined by “and” are separate records of one study, mostly repeats; a detail may differ.", "chain of UniProt P35372 (whole entry, looked up)": "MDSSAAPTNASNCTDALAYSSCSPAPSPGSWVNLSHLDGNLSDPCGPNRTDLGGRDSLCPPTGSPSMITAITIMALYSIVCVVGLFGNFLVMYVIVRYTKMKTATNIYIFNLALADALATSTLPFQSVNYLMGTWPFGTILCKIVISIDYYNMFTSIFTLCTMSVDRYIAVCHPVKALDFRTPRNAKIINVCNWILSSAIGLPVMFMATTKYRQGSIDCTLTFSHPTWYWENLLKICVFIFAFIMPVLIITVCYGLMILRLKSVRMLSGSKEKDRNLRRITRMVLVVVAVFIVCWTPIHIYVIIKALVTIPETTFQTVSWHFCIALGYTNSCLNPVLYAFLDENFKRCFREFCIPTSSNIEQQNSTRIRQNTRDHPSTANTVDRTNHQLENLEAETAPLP", "chain of UniProt Q695T7 (whole entry, looked up)": "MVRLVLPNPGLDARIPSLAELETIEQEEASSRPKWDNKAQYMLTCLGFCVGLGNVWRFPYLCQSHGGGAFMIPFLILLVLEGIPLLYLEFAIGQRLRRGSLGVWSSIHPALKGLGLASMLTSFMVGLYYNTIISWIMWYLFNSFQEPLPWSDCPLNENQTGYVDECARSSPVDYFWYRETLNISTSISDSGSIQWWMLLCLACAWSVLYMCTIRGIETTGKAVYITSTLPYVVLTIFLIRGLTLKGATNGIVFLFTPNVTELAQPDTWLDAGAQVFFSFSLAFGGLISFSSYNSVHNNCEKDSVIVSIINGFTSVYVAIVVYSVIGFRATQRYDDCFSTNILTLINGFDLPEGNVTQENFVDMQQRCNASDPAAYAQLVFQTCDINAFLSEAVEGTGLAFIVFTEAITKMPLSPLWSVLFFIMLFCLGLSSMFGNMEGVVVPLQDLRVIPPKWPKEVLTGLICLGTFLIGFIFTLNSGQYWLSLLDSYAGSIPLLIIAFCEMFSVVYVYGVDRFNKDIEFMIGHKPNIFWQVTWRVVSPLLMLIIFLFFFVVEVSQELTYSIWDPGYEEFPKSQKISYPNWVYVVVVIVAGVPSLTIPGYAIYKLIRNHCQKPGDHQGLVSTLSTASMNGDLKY"}
{"data": "Series 1", "SMILES": "Cn1cc(-c2cccc(CN3CCC4(CC3)COc3c4ccc4c3CN([C@H]3CCC(=O)NC3=O)C4=O)c2)cn1", "target": "Voltage-gated inwardly rectifying potassium channel KCNH2 (KCNH2, Homo sapiens, UniProt Q12809)", "read-out": "hERG current", "technique": "manual patch clamp", "chain of UniProt Q12809 (whole entry, looked up)": "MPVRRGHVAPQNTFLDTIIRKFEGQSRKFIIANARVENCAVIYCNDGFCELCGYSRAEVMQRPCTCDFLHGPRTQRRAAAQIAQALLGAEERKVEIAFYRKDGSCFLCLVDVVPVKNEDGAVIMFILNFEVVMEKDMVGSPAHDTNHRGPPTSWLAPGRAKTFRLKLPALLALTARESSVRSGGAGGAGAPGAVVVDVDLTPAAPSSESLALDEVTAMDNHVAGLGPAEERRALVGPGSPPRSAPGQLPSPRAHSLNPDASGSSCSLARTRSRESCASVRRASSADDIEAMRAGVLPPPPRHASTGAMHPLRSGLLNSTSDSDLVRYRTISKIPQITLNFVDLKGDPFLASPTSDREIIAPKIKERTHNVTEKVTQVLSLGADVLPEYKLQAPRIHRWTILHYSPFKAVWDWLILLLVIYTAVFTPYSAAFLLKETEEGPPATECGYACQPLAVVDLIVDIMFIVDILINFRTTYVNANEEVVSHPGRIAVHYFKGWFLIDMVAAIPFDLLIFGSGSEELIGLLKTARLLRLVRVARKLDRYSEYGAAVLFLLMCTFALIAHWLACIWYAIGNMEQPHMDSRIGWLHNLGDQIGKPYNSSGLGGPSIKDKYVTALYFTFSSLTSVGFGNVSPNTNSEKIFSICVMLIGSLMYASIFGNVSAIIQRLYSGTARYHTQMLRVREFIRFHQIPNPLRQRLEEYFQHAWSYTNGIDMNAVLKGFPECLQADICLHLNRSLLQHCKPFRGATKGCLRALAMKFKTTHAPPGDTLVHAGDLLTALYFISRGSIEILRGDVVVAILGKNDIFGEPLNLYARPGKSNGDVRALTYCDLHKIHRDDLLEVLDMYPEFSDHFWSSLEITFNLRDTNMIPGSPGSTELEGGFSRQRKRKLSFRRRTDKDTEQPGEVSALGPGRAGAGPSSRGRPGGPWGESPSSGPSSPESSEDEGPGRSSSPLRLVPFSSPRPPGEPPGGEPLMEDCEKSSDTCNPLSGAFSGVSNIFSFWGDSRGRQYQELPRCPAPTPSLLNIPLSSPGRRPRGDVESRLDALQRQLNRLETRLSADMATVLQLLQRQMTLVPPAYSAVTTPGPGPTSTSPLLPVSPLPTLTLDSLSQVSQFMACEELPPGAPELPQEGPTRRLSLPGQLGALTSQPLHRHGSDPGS"}
{"tested at": "1.00 µM", "mean inhibition [%]": 3.19}
{"tested at": "10.00 µM", "mean inhibition [%]": 18.9}
{"tested at": "3.00 µM", "mean inhibition [%]": 7.94}
{"data": "Other studies, line by line"}
{"SMILES": "CCCNC(=O)COc1ccc(Br)c(C)c1", "tested on": "SLC6A19 (Homo sapiens, UniProt Q695T7)", "test": "inhibitor, FLIPR membrane potential", "system": "CHO-BC cells", "conditions": "0.001 µM", "endpoint": "normalised transport activity", "result": 0.982}
{"SMILES": "N=C(N)NCCCCCCN1CCC23c4c5ccc(O)c4OC2c2nc4ccccc4cc2CC3(O)C1C5 (stereo not drawn)", "tested on": "OPRM1 (Homo sapiens, UniProt P35372)", "test": "competitor, radioligand binding", "conditions": "100 nM", "endpoint": "normalised specific binding", "result": "93.1% and 75.4% and 52.4%"}
{"SMILES": "C#CCN1C(=O)C(O)(C(=O)O)Oc2cc(F)ccc21 (stereo not drawn)", "tested on": "Arabidopsis thaliana", "system": "shoots", "conditions": "foliar spray, 200 µg/mL, 20 days", "endpoint": "fresh weight", "result": "367 mg"}
{"note": "For quick reference, copied from above (series 1):"}
{"tested at": "10.00 µM", "mean inhibition [%]": 18.9}
